{"data": "Measured values collected from several papers", "note": "A part holds a random share of what one study measured. Values joined by “and” are separate records of one study, mostly repeats; a detail may differ.", "chain of UniProt P78368 (whole entry, looked up)": "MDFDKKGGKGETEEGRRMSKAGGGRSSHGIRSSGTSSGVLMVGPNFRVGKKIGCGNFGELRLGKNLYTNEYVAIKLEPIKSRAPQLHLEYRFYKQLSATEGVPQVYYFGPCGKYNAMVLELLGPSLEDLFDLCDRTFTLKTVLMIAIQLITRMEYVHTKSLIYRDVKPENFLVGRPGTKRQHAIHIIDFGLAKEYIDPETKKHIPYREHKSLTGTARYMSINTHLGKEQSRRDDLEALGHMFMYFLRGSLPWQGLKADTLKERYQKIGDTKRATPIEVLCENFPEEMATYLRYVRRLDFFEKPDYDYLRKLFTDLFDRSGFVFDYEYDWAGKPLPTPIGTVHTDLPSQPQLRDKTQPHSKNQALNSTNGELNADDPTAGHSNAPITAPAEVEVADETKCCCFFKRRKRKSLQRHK", "chain of UniProt P15056 (whole entry, unmodified, looked up)": "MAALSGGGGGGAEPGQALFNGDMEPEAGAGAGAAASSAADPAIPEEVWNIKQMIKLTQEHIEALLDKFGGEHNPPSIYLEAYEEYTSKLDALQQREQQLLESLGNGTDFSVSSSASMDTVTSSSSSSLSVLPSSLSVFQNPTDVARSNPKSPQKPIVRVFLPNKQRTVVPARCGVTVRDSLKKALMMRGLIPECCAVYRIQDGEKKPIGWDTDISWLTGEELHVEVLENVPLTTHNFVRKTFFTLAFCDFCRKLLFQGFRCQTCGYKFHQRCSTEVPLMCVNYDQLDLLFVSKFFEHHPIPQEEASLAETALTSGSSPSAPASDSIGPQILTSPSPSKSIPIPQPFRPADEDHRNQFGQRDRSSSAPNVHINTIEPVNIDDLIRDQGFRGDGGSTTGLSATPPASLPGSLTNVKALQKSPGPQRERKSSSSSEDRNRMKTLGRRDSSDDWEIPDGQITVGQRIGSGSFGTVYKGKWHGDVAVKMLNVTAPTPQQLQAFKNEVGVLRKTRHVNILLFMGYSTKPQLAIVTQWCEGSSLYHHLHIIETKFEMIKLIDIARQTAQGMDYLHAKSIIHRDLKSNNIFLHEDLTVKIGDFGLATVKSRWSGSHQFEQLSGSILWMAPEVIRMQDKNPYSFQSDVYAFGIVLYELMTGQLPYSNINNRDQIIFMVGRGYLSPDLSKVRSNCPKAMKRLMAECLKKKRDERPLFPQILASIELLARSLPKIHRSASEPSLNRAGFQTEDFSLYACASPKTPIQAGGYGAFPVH", "chain of UniProt Q9BXA7 (whole entry, looked up)": "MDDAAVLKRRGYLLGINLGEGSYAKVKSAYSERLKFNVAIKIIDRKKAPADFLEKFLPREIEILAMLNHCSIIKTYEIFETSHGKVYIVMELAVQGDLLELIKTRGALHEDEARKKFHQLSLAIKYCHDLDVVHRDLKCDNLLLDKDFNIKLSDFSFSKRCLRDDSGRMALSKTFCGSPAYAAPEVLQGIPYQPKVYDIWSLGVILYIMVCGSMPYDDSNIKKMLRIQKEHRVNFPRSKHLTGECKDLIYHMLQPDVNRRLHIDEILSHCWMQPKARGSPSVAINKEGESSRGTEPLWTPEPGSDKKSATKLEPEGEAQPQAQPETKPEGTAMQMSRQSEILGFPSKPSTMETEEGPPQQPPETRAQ", "chain of UniProt O75385 (whole entry, looked up)": "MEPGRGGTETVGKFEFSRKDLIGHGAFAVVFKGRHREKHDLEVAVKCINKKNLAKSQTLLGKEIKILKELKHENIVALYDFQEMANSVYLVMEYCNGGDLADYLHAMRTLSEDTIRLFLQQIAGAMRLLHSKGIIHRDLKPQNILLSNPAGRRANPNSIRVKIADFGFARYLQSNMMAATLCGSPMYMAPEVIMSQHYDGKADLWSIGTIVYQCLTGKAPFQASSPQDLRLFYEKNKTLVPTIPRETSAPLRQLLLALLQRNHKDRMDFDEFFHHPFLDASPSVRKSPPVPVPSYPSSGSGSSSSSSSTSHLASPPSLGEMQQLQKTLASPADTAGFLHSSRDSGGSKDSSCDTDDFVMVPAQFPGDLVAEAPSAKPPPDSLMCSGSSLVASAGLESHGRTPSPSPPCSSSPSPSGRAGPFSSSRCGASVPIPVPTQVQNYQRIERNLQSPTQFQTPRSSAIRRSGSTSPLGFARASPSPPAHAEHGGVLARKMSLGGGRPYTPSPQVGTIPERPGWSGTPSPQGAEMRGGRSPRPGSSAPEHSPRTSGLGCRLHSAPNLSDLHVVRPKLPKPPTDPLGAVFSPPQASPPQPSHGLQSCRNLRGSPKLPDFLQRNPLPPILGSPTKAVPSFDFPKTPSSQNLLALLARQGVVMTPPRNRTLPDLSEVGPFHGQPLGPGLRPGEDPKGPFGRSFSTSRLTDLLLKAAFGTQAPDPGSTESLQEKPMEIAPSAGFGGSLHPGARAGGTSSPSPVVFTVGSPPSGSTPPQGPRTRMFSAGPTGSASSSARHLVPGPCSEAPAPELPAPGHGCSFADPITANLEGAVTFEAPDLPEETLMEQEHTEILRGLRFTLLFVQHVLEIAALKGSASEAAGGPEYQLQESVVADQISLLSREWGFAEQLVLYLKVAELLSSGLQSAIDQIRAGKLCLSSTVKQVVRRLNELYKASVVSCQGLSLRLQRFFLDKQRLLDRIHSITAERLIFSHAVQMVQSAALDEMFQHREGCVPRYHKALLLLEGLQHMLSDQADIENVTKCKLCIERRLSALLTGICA", "chain of UniProt P31749 (whole entry, looked up)": "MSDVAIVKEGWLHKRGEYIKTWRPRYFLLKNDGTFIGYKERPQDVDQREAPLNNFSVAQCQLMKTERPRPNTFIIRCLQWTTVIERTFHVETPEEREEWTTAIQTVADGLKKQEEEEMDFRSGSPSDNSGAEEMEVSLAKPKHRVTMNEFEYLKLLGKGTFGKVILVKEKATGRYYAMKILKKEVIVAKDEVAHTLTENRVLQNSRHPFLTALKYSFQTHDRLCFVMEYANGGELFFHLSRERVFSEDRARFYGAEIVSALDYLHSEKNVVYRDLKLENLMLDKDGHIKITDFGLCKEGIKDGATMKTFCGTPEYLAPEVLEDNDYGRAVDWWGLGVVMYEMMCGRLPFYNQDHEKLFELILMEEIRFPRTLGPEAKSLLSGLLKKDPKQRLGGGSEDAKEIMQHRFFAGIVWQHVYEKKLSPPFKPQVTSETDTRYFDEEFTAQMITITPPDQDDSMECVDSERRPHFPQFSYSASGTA", "chain of UniProt Q13188 (whole entry, looked up)": "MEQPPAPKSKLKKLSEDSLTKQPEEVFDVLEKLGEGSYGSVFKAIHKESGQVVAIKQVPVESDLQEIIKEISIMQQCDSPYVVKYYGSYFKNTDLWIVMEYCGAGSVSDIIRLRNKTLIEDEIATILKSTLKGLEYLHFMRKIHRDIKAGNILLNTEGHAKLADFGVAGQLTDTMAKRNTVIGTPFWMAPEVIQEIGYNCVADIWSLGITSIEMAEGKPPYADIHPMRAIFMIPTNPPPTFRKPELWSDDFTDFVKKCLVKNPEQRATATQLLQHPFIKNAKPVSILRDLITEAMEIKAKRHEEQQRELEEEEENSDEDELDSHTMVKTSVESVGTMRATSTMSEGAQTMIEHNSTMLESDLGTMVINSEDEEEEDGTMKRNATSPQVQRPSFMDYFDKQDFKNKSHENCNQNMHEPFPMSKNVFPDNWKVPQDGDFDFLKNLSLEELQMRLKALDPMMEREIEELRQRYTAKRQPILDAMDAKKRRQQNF", "chain of UniProt Q16512 (whole entry, looked up)": "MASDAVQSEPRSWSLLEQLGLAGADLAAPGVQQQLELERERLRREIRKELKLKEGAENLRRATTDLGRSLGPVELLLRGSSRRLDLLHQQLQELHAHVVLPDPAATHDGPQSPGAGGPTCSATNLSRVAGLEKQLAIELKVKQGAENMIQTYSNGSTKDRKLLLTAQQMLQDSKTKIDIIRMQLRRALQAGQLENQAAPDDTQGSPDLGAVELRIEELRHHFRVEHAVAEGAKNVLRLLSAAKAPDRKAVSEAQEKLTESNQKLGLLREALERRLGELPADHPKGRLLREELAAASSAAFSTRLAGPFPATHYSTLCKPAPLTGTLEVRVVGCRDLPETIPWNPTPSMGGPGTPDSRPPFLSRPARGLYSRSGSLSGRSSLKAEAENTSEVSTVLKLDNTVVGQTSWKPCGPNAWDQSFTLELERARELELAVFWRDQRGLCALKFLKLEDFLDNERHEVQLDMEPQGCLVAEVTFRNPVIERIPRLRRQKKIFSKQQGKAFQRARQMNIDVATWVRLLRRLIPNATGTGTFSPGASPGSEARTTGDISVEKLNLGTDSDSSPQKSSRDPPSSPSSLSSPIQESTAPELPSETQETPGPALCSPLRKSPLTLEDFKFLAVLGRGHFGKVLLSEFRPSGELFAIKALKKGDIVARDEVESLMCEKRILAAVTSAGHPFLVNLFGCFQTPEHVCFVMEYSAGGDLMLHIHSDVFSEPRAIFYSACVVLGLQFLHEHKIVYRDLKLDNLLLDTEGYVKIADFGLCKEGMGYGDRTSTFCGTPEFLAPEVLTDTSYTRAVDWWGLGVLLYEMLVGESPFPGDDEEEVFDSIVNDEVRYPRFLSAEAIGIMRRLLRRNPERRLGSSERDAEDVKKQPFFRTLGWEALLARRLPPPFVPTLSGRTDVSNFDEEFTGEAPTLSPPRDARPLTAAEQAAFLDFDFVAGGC"}
{"data": "Sample 1", "Compound": "CCN1CCN(Cc2ccc(COc3c(-c4c(C)c(F)cc5[nH]ncc45)c(C4CC4)cc4c(N5C[C@@H]6C[C@H]5CN6)nc(OC5CCOCC5)nc34)cc2)C(=O)C1", "observed": "KRAS-RAF interaction", "mode": "inhibitor", "technique": "TR-FRET", "with": "SOS-mediated nucleotide exchange", "KRAS G12D with RAF": "GTPase KRas, with RAF (KRAS, Homo sapiens, UniProt P01116, G12D)", "KRAS with RAF": "GTPase KRas, with RAF (KRAS, Homo sapiens, UniProt P01116)"}
{"target": "KRAS G12D with RAF", "tested at": "3 µM", "inhibition": "101%"}
{"target": "KRAS G12D with RAF", "tested at": "100 nM", "inhibition": "71.7% and 71.3%"}
{"target": "KRAS G12D with RAF", "tested at": "1 µM", "inhibition": "100%"}
{"target": "KRAS with RAF", "tested at": "10 µM", "inhibition": "104% and 102%"}
{"target": "KRAS with RAF", "tested at": "10 nM", "inhibition": "-0.809% and -4.49%"}
{"target": "KRAS with RAF", "tested at": "30 nM", "inhibition": "-2.28% and -1.3%"}
{"target": "KRAS G12D with RAF", "tested at": "300 nM", "inhibition": "97.8%"}
{"data": "Sample 2", "Structure (SMILES)": "CN(C1COC1)C(C)(C)/C=C(\\C#N)C(=O)N1CCC[C@H]1Cn1nc(-c2ccc(Oc3ccccc3)cc2F)c2c(N)ncnc21", "observed": "kinase activity"}
{"target": "MAPK3 (Homo sapiens, UniProt P27361)", "tested at": "0.1 µM", "inhibition": "-3%"}
{"target": "SLK (Homo sapiens, UniProt Q9H2G2)", "tested at": "0.1 µM", "inhibition": "5%"}
{"target": "TNK2 (Homo sapiens, UniProt Q07912)", "tested at": "1 µM", "inhibition": "-3%"}
{"target": "CSNK1G2 (Homo sapiens, UniProt P78368)", "tested at": "1 µM", "inhibition": "-2%"}
{"target": "PKN1 (Homo sapiens, UniProt Q16512)", "tested at": "0.1 µM", "inhibition": "3%"}
{"target": "HIPK2 (Homo sapiens, UniProt Q9H2X6)", "tested at": "1 µM", "inhibition": "2%"}
{"target": "PAK2 (Homo sapiens, UniProt Q13177)", "tested at": "1 µM", "inhibition": "0%"}
{"target": "STK3 (Homo sapiens, UniProt Q13188)", "tested at": "0.1 µM", "inhibition": "3%"}
{"target": "MAPK14 (Homo sapiens, UniProt Q16539)", "tested at": "0.1 µM", "inhibition": "4%"}
{"target": "FRK (Homo sapiens, UniProt P42685)", "tested at": "0.1 µM", "inhibition": "2%"}
{"data": "Sample 3", "SMILES": "CC[C@@]1(c2ccccc2)C2=C(CC(C)(C)CC2=O)Nc2n[nH]cc21", "tested at": "1 µM"}
{"target": "TSSK1B (Homo sapiens, UniProt Q9BXA7)", "observed": "binding", "technique": "competition with immobilised ligand", "remaining binding": "95%"}
{"target": "ERBB4 (Homo sapiens, UniProt Q15303)", "observed": "binding", "technique": "competition with immobilised ligand", "remaining binding": "88%"}
{"target": "MARK2 (Homo sapiens, UniProt Q7KZI7)", "observed": "kinase binding", "technique": "KINOMEscan", "baseline": "DMSO control", "remaining binding": "67%"}
{"target": "BUB1 (Homo sapiens, UniProt O43683)", "observed": "binding", "technique": "competition with immobilised ligand", "remaining binding": "100%"}
{"target": "PRKX (Homo sapiens, UniProt P51817)", "observed": "binding", "technique": "competition with immobilised ligand", "remaining binding": "86%"}
{"target": "BRAF (Homo sapiens, UniProt P15056, V600E)", "observed": "kinase binding", "technique": "KINOMEscan", "baseline": "DMSO control", "remaining binding": "100%"}
{"target": "STK35 (Homo sapiens, UniProt Q8TDR2)", "observed": "kinase binding", "technique": "KINOMEscan", "baseline": "DMSO control", "remaining binding": "98%"}
{"target": "PDGFRA (Homo sapiens, UniProt P16234)", "observed": "binding", "technique": "competition with immobilised ligand", "remaining binding": "100%"}
{"target": "DSTYK (Homo sapiens, UniProt Q6XUX3)", "observed": "binding", "technique": "competition with immobilised ligand", "remaining binding": "92%"}
{"target": "EGFR (Homo sapiens, UniProt P00533)", "observed": "binding", "technique": "competition with immobilised ligand", "remaining binding": "100%"}
{"target": "AKT1 (Homo sapiens, UniProt P31749)", "observed": "kinase binding", "technique": "KINOMEscan", "baseline": "DMSO control", "remaining binding": "100%"}
{"target": "ULK1 (Homo sapiens, UniProt O75385)", "observed": "kinase binding", "technique": "KINOMEscan", "baseline": "DMSO control", "remaining binding": "100%"}
{"target": "CDC42BPG (Homo sapiens, UniProt Q6DT37)", "technique": "KINOMEscan", "remaining binding": "94%"}
{"target": "HIPK3 (Homo sapiens, UniProt Q9H422)", "observed": "kinase binding", "technique": "KINOMEscan", "baseline": "DMSO control", "remaining binding": "100%"}
{"target": "CSNK1E (Homo sapiens, UniProt P49674)", "observed": "binding", "technique": "competition with immobilised ligand", "remaining binding": "100%"}
{"data": "Further values, each from its own experiment", "PKMYT1": "Membrane-associated tyrosine- and threonine-specific cdc2-inhibitory kinase (PKMYT1, Homo sapiens, UniProt Q99640)", "chain of UniProt Q99640 (whole entry, looked up)": "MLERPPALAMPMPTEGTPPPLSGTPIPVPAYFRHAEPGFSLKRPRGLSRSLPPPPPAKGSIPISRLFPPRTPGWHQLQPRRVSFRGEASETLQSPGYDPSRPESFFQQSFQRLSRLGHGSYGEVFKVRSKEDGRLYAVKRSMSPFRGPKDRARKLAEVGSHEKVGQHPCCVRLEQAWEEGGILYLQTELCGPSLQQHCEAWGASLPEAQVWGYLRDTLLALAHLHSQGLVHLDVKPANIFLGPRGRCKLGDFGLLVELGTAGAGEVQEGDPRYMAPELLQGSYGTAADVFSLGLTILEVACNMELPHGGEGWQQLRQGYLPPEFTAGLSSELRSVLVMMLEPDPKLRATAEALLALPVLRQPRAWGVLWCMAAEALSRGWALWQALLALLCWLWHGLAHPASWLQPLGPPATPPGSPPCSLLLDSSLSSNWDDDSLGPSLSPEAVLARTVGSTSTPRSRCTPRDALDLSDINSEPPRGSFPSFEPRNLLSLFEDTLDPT"}
{"Compound": "Cc1ccc(O)c(C)c1-c1cnc2[nH]c(-c3cnc(N4CCC(CN5CCC(c6ccc(NC7CCC(=O)NC7=O)cc6F)CC5)CC4)nc3)cc2c1C#N (stereo not drawn)", "target or system": "HCC1569", "test": "CDK1 Thr14 phosphorylation, in-cell western", "conditions": "1000.00 nM", "scale": "lower = stronger inhibition", "measurement": "phospho-CDK1 (Thr14) level", "result": "102 a.u."}
{"Compound": "Cc1ccc(O)c(C)c1-c1cnc2[nH]c(-c3cnc(N4CCC(CN5CCN(c6cc7c(cc6F)n(C6CCC(=O)NC6=O)c(=O)n7C)CC5)CC4)nc3)cc2c1C#N (stereo not drawn)", "target or system": "PKMYT1", "test": "degrader, automated immunoblot", "system": "HCC1569", "conditions": "100.00 nM", "measurement": "degradation", "result": "90.9%"}
{"Compound": "Cc1ccc(O)c(C)c1-c1cnc2[nH]c(-c3cnc(N4CCC5(CC4)CC(N4CCN(c6ccc(N[C@@H]7CCC(=O)NC7=O)cc6F)CC4)CO5)nc3)cc2c1C#N (single isomer, unassigned)", "target or system": "PKMYT1", "test": "degrader, automated immunoblot (Jess)", "conditions": "12.35 nM, 24 h", "measurement": "degradation", "result": "76.5%"}
{"Compound": "Cc1ccc(O)c(C)c1-c1cnc2[nH]c(-c3cnc(N4CC5(CC(CN6CCN(c7ccc(NC8CCC(=O)NC8=O)cc7F)CC6)C5)C4)nc3)cc2c1C#N (stereo not drawn)", "target or system": "HCC1569", "test": "CDK1 Thr14 phosphorylation, in-cell western", "conditions": "1000.00 nM", "scale": "lower = stronger inhibition", "measurement": "phospho-CDK1 (Thr14) level", "result": "125 a.u."}
